Measurements pooled from the literature.
Lines come from different studies, so protocols differ. Several values in a cell are separate wells, animals, samples, runs or records. ± gives the spread as reported.
UniProt P08183, sequence (whole entry, looked up): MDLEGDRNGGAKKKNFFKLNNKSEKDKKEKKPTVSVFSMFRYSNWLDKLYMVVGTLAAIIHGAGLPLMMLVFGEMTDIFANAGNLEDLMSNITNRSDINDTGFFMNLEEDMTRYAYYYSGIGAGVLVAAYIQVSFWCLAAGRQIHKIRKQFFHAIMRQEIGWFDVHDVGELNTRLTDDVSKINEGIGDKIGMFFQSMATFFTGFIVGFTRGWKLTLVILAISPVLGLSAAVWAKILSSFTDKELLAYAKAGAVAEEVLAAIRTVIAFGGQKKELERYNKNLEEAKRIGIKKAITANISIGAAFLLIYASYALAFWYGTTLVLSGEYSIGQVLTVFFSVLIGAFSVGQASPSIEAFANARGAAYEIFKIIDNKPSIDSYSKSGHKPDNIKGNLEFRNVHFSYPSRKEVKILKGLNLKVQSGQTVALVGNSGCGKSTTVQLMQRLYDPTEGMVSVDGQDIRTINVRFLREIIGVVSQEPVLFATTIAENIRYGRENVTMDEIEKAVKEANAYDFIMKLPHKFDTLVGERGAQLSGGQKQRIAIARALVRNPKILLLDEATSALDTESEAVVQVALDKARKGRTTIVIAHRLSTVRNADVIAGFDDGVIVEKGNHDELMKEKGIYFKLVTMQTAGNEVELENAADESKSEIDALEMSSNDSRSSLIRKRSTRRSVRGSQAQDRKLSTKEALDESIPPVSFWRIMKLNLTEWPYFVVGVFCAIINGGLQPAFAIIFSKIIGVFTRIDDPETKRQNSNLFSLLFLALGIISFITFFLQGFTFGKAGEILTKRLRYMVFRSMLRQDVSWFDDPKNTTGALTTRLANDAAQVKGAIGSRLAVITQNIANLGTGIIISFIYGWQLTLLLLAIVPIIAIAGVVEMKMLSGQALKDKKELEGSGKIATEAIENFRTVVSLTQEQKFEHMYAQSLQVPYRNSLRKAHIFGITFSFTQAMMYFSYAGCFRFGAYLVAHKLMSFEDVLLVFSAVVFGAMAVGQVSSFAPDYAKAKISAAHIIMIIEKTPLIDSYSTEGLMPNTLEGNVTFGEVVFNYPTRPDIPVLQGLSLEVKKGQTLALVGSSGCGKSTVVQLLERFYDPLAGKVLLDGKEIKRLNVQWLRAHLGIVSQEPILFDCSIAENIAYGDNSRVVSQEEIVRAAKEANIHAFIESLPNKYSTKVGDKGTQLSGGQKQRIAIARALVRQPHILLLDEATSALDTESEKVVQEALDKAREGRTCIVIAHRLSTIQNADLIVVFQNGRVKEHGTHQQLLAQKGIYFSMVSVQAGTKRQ
UniProt P08684, sequence (whole entry, looked up): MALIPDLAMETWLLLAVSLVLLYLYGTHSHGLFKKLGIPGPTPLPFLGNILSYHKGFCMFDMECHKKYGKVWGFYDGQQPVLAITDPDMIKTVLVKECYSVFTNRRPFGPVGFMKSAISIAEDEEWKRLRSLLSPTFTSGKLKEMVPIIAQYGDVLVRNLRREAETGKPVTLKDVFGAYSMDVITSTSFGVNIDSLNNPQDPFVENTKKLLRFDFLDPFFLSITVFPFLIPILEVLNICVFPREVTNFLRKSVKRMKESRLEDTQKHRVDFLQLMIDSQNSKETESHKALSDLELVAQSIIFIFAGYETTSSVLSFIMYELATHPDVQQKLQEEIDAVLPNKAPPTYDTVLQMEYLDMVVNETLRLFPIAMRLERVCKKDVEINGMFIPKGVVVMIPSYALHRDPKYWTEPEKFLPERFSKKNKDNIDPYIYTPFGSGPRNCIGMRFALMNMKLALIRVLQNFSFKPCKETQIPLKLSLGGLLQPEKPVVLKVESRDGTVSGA

SMILES	target or system	assay	test system	setting	how to read	quantity	value
Cc1c(O)c(C)c2c(c1O)C(=O)C[C@@H](c1ccc(O)cc1)O2	BEAS-2B	enzyme activity, inducer, fluorogenic substrate imaging	–	10 µM, 24 h	baseline: control	CYP1A1 induction	1.43 fold
Cc1cc(N)c2c(OCC(C)(C)C(=O)NC(C)C)cccc2n1	Salmonella typhimurium	reverse mutation, plate incorporation	TA100	100 µg/plate, with rat liver S9	–	mean revertant colonies	72 colonies/plate
Cc1cc(C(=O)NC(C)(C)COc2cccc3c2C(N)=NS(=O)(=O)N3)cc(C)n1	human peripheral blood lymphocytes	CBPI, preliminary test	–	60 µg/mL, 4 h, with: rat liver S9	baseline: vehicle control	cytotoxicity	9%
CC(C)(c1ccc(O)cc1)c1ccc(O)cc1	HepG2 spheroids, dissociated	annexin V-FITC/PI flow cytometry	–	10 µM, 24 h	–	viable cells	66.4 ± 8.52%
CC[C@H]1[C@@H](O)[C@@H]2[C@H](CC[C@]3(C)[C@@H]([C@H](C)CCNC(=O)NS(=O)(=O)c4ccc(C(C)(C)C)cc4)CC[C@@H]23)[C@@]2(C)CC[C@@H](O)C[C@@H]12	Cytochrome P450 3A4 (CYP3A4, Homo sapiens, UniProt P08684)	–	human, plasma	dose not given, compound alone	–	Cmax mean	33.9 ng/mL
CC(=O)Nc1cccc(-n2c(=O)n(C3CC3)c(=O)c3c(Nc4ccc(I)cc4F)n(C)c(=O)c(C)c32)c1	NCI-H2087 (BRAF L597V)	–	–	concentration not given, 72 h, unit not given	baseline: DMSO	viability	0.929 and 0.873 and 0.431 and 0.428 and 0.562
CC[C@H](CO)N(CCN(N=O)[C@H](CC)CO)N=O	Salmonella typhimurium	mutagenicity, Ames plate incorporation	TA1537	1500 µg/plate, without S9, methanol	–	revertant colonies per plate	16 ± 2
Cc1cc(Nc2ccc(S(F)(F)(F)(F)F)cc2)n2nc(C(C)(F)F)nc2n1	Plasmodium falciparum	12-lead Holter ECG	human malaria patients	oral, 400 mg, QTc above 500 ms	–	patients with QTcF above threshold	0%
CN1CCN(c2cnc3c(cc(C(=O)NCc4ccc(Cl)cc4)c(=O)n3CC(=O)N3CC(C)(F)C3)n2)C1=O	herpes simplex virus 1	cytopathic effect	–	–	baseline: CC50 over EC50	selectivity index	> 106
C[Si](C)(C)O[Si](C)(C)O[Si](C)(C)C	Oncorhynchus mykiss	IVIVE from liver S9	–	–	–	hepatic intrinsic clearance kmet,int	182000 h⁻¹ and 162000 h⁻¹ and 183000 h⁻¹
CC1(C)CC[C@]2(C(=O)O)CC[C@]3(C)C(=CC[C@@H]4[C@@]5(C)C[C@@H](O)[C@H](O)C(C)(C)[C@@H]5CC[C@]43C)[C@@H]2C1	BEAS-2B	enzyme activity, inducer, fluorogenic substrate imaging	–	10 µM, 24 h	baseline: control	CYP1A1 induction	1.08 fold
C[C@@H]1OC(=O)[C@H](Cc2ccccc2)[C@H]1O	Pseudokirchneriella subcapitata	growth	–	concentration not given, 72 h, static test	–	NOEC	> 9000 µg/L
CC1(C)CCC2(CC1)N[C@@H](C(=O)N[C@@H]1CC[C@@H](C(N)=O)OC1)[C@H](c1ccnc(Cl)c1F)[C@]21C(=O)Nc2cc(Cl)ccc21	ABCB1 (Homo sapiens, UniProt P08183)	–	Caco-2 monolayers	10 µM, 120 min, no inhibitor	–	Papp A to B	1.86 ×10⁻⁶ cm/s
C[Si]1(C)O[Si](C)(C)O[Si](C)(C)O[Si](C)(C)O[Si](C)(C)O1	Oncorhynchus mykiss	extrapolated from liver S9	–	concentration not given, lipid-normalized, total	–	bioconcentration factor	47300 L/kg lipid and 71300 L/kg lipid

A few entries again:
SMILES	target or system	assay	test system	setting	how to read	quantity	value
CC[C@H]1[C@@H](O)[C@@H]2[C@H](CC[C@]3(C)[C@@H]([C@H](C)CCNC(=O)NS(=O)(=O)c4ccc(C(C)(C)C)cc4)CC[C@@H]23)[C@@]2(C)CC[C@@H](O)C[C@@H]12	Cytochrome P450 3A4 (CYP3A4, Homo sapiens, UniProt P08684)	–	human, plasma	dose not given, compound alone	–	Cmax mean	33.9 ng/mL
CC(C)(c1ccc(O)cc1)c1ccc(O)cc1	HepG2 spheroids, dissociated	annexin V-FITC/PI flow cytometry	–	10 µM, 24 h	–	viable cells	66.4 ± 8.52%
